Measured values of several laboratories.
Every numbered part comes from another study and shows a few of its results, in no order. Substitutions count along the parent as printed.

Series 1 — target: HLF, bZIP domain (human); method: DHFR protein complementation; medium: yeast; relative to: wild-type JUN-FOS pair; reading: higher = stronger binding; measurement: binding fitness
Setting: single substitutions, most at no-binding floor
Starting sequence: JUN, bZIP domain (human); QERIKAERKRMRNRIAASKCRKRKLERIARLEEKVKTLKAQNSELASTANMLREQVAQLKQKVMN; partner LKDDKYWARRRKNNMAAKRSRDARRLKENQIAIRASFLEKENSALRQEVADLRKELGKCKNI
Variant = L31V; result = -1.47 natural log
Variant = M51T; result = -1.31 natural log
Variant = M51D; result = -1.31 natural log
Variant = L45F; result = -1.44 natural log
Variant = Q55T; result = -1.36 natural log
Variant = S43E; result = -1.33 natural log
Variant = S43N; result = -1.33 natural log
Variant = T37R; result = -1.35 natural log
Variant = Q41R; result = -1.26 natural log
Variant = A46R; result = -1.27 natural log
Variant = L52C; result = -1.47 natural log
Variant = R30C; result = -1.54 natural log
Variant = E54H; result = -1.52 natural log
Variant = Q41E; result = -1.37 natural log
Variant = R30P; result = -1.32 natural log
Variant = L31K; result = -1.54 natural log
Variant = Q41A; result = -1.44 natural log
Variant = A29E; result = -1.45 natural log
Variant = A46W; result = -1.46 natural log
Variant = V35A; result = -1.49 natural log

Series 2 — method: protein binding microarray; form: double-stranded DNA, one strand shown; medium: in vitro; concentration: not given; relative to: not given; reading: higher = stronger binding; measurement: E-score
Target: Histone acetyltransferase KAT6A, both winged helices, GST fusion (KAT6A, Homo sapiens, UniProt Q92794, residues 1-181)
Setting: 8-mer, flanks averaged, mean of 2 arrays, mostly near background
Construct (chain): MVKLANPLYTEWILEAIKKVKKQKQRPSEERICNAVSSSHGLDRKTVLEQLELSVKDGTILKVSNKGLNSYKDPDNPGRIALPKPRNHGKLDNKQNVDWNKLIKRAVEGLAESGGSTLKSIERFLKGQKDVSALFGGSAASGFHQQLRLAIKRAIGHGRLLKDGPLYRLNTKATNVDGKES
Sequence = ATAGGTCG; result = -0.0252
Sequence = CGAAGCAG; result = -0.0362
Sequence = ATGAAGGA; result = -0.2
Sequence = CGACAATA; result = 0.0326
Sequence = GCATCCCC; result = 0.00628
Sequence = CATTTTAA; result = -0.0606
Sequence = AGCCGTCA; result = 0.282
Sequence = ATCACGCC; result = 0.113
Sequence = GCAGAAAA; result = -0.000475
Sequence = AATGTCAT; result = -0.0235
Sequence = AAGACCGG; result = 0.0863
Sequence = AAGAGAAG; result = -0.0596
Sequence = AAGTGCCA; result = -0.177
Sequence = CATGTGAA; result = -0.0315
Sequence = CGACCGCC; result = 0.151
Sequence = TATATCCA; result = -0.0256
Sequence = CGTAATAG; result = -0.0212
Sequence = ACAGCATG; result = -0.027
Sequence = ACGGGGGA; result = -0.0865
Sequence = CGTCCTAC; result = -0.0332
Sequence = AGCTGAGG; result = -0.265
Sequence = CGCTCACC; result = 0.119
Sequence = CCGTTCCA; result = 0.117

Series 3 — method: protein-binding microarray; form: double-stranded DNA, one strand shown; medium: in vitro; concentration: 940 nM top; setting: 60-bp whole probe; together with: salmon DNA 0.4 mg/ml; relative to: random background probes; reading: higher = stronger binding; measurement: fitted relative affinity; constant ends, left off below: GCCTAGCAC … GTCTTGATTCGCTTGACGCTGCTG
Target: Interferon regulatory factor 5, full length, phosphomimetic (IRF5, Homo sapiens, UniProt Q13568-2, residues 1-514, S451D/S453D/S456D/S462D)
Sequence = TAACATATTCTCTTCTTGCAGTGCTAG; result = 1.3 z-score
Sequence = GACGGACTGGGGTAACGGGACGTGCTA; result = -0.172 z-score
Sequence = TTAGATTTCCGTCTCGATTAGTGCTAG; result = 2.66 z-score
Sequence = GACGGTCTCTTACTGCTGACGTGCTAG; result = 0.284 z-score
Sequence = TTAGCACTGGGGACTGGGTTAGTGCTA; result = -0.188 z-score
Sequence = TCAATTGGTTGAACATGACTGTGCTAG; result = -0.458 z-score
Sequence = TCACAACTTTTTTTAATACTGTGCTAG; result = 1.05 z-score
Sequence = TCATTTATGTCCTGTCTAACTGTGCTA; result = 0.569 z-score
Sequence = TCATGTTTCTACTGTCTGACTGTGCTA; result = 0.883 z-score
Sequence = TTAGGGCTGGGTCTCGGTTAGTGCTAG; result = 1.3 z-score
Sequence = GACGGACTGGACTTTTGGGACGTGCTA; result = -0.2 z-score
Sequence = ATAGGTCTCCTTCTCCTTTAGTGCTAG; result = 0.301 z-score
Sequence = TGTCTTCCCCATCTTGTTCCGTGCTAG; result = 1.39 z-score
Sequence = GACGATTCCAGTTTCCAGACGTGCTAG; result = 0.889 z-score
Sequence = CAATACCTTATGAATGTGTTGTGCTAG; result = 0.19 z-score
Sequence = GACGGTATCGGTCTCGGTACGTGCTAG; result = 8.41 z-score
Sequence = TTAGGTATCCTTATCCCTTAGTGCTAG; result = 0.335 z-score

Series 4 — method: aptamer microarray, sandwich; form: DNA with 2'F-ANA; medium: in vitro; concentration: 200 nM; together with: Cy3 exosite-II aptamer, 400 nM; reading: higher = stronger binding; measurement: mean fluorescence intensity; sequence: GGTTGGTGTGGTTGG
Target: Prothrombin, mature alpha-thrombin (F2, Homo sapiens, UniProt P00734)
Setting: whole 15-mer aptamer, many near background
Modification = 2'F-ANA at 1 3 5 6 10 11 12 13 14; result = 75.5 a.u.
Modification = 2'F-ANA at 1 2 3 4 6 7 9 11 12 13 14 15; result = 61.4 a.u.
Modification = 2'F-ANA at 1 2 4 6 9 10 14; result = 43.4 a.u.
Modification = 2'F-ANA at 1 5 9 11 15; result = 49.8 a.u.
Modification = 2'F-ANA at 2 3 4 5 8 11 13 14 15; result = 88.5 a.u.
Modification = 2'F-ANA at 7 9 10 12 15; result = 229 a.u.
Modification = 2'F-ANA at 2 4 6 7 8 10 11 12 14 15; result = 66.8 a.u.
Modification = 2'F-ANA at 3 6 9 10 14; result = 421 a.u.
Modification = 2'F-ANA at 1 2 4 5 8 9 11 12 15; result = 84 a.u.
Modification = 2'F-ANA at 2 4 6 9 11 12 15; result = 312 a.u.
Modification = 2'F-ANA at 1 2 8 10 11 15; result = 52.2 a.u.
Modification = 2'F-ANA at 1 2 3 4 7 9 10 11 14; result = 53.9 a.u.
Modification = 2'F-ANA at 1 2 5 6 11 12 13 15; result = 71.9 a.u.
Modification = 2'F-ANA at 2 3 5 6 8 10 11 13; result = 53.4 a.u.
Modification = 2'F-ANA at 1 2 4 5 6 10 11 12 13 14; result = 50.7 a.u.
Modification = 2'F-ANA at 3 4 5 6 7 8 9 14; result = 49.9 a.u.
Modification = 2'F-ANA at 1 4 5 6 8 9 12 14 15; result = 47.8 a.u.
Modification = 2'F-ANA at 4 6 7 9 10 11 12 14 15; result = 57.7 a.u.
Modification = 2'F-ANA at 1 6 10 15; result = 88.8 a.u.
Modification = 2'F-ANA at 9 10 11 13 15; result = 125 a.u.
Modification = 2'F-ANA at 2 6 11 12 13 15; result = 443 a.u.
Modification = 2'F-ANA at 1 2 4 7 12; result = 359 a.u.
Modification = 2'F-ANA at 2 3 9 10 12 14 15; result = 279 a.u.

Excerpt of the above (series 3):
Sequence = GACGGTCTCTTACTGCTGACGTGCTAG; result = 0.284 z-score
Sequence = TAACATATTCTCTTCTTGCAGTGCTAG; result = 1.3 z-score
Sequence = TGTCTTCCCCATCTTGTTCCGTGCTAG; result = 1.39 z-score
Sequence = GACGGACTGGGGTAACGGGACGTGCTA; result = -0.172 z-score
Sequence = GACGATTCCAGTTTCCAGACGTGCTAG; result = 0.889 z-score
Sequence = TCATGTTTCTACTGTCTGACTGTGCTA; result = 0.883 z-score
